Published values of several laboratories.
Numbered parts are unrelated; each lists some results of a single study.
UniProt Q8WU08, sequence (whole entry, looked up): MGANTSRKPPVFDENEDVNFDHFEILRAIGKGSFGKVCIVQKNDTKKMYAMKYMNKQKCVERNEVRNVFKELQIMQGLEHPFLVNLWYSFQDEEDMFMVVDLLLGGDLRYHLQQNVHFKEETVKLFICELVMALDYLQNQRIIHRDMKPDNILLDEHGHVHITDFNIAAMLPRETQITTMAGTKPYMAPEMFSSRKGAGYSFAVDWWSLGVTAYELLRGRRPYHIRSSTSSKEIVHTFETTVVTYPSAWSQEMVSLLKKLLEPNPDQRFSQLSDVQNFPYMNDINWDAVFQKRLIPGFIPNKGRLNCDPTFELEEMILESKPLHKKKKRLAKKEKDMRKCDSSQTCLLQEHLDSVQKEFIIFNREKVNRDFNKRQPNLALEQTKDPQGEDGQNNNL
UniProt P54762, sequence (whole entry, looked up): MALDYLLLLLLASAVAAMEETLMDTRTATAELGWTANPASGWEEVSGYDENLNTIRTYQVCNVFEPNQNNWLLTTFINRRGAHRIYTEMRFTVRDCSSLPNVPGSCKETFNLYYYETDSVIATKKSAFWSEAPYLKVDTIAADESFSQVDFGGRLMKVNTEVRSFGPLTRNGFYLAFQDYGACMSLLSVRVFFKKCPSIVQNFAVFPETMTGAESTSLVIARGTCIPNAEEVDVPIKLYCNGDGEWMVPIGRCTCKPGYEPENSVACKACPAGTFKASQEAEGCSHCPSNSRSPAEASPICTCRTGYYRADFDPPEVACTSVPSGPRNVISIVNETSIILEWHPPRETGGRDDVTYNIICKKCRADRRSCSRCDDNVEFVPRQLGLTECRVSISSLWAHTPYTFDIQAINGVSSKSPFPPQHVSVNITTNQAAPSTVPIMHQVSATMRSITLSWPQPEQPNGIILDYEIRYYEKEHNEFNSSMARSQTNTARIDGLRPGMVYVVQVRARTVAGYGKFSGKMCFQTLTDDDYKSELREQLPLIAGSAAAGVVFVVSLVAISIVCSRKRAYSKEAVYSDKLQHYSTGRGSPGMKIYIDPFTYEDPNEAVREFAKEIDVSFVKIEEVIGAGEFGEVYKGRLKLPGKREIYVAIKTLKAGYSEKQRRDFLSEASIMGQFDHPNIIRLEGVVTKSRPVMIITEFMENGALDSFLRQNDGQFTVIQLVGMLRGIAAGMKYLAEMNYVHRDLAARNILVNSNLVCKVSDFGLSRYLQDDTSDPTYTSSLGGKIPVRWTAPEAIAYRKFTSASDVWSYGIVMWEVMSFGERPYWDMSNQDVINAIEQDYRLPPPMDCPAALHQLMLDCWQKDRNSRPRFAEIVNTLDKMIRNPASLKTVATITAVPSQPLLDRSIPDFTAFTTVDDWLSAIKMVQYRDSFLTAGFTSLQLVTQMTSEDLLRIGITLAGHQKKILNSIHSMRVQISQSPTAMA
UniProt Q9UQ88, sequence (whole entry, looked up): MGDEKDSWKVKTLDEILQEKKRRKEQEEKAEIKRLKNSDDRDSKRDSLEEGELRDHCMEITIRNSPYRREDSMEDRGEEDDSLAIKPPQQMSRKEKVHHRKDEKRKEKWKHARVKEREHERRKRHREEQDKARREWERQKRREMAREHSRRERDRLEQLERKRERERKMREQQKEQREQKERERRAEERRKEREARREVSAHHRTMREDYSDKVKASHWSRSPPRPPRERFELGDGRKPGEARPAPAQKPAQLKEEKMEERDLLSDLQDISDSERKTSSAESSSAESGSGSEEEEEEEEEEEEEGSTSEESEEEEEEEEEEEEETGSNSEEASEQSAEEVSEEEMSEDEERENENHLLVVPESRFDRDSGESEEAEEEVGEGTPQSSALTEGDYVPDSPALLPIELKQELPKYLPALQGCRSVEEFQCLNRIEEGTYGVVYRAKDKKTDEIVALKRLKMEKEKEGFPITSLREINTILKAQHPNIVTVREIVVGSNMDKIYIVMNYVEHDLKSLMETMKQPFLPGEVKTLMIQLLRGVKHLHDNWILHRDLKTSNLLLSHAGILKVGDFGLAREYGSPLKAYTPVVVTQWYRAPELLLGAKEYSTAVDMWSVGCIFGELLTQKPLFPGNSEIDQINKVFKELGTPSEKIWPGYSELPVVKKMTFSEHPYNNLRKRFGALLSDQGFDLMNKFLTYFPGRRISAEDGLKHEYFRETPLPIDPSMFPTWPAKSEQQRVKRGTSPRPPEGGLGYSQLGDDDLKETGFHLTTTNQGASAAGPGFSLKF
UniProt P51451, sequence (whole entry, looked up): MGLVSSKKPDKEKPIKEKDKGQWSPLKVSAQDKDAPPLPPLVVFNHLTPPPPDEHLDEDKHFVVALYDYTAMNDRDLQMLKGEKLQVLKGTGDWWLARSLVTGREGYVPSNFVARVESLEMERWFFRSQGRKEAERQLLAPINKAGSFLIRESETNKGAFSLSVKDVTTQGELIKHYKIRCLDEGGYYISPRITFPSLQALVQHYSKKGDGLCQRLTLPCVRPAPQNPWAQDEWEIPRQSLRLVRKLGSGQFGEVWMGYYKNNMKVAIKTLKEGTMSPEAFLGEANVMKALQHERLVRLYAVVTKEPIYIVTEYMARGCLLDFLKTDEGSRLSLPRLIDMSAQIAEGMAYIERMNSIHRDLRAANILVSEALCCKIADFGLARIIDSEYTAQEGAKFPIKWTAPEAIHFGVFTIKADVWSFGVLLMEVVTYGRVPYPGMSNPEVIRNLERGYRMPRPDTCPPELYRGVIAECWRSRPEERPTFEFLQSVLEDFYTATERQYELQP
UniProt O43781, sequence (whole entry, looked up): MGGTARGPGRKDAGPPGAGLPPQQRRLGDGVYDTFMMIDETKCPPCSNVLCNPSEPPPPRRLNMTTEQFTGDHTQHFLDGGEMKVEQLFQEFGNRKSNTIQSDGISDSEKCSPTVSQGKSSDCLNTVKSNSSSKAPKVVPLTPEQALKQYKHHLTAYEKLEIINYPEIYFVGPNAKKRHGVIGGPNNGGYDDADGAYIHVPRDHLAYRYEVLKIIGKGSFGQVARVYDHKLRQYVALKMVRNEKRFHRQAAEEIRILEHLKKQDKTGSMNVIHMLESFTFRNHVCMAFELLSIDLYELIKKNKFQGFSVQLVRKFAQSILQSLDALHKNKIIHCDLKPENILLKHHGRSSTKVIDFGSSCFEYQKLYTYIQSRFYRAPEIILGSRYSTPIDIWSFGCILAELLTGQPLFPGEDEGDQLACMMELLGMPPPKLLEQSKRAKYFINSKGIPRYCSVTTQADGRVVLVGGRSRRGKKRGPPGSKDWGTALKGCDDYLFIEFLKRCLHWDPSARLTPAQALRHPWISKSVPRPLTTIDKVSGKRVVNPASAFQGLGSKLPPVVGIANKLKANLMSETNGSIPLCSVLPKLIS
UniProt Q8TDX7, sequence (whole entry, looked up): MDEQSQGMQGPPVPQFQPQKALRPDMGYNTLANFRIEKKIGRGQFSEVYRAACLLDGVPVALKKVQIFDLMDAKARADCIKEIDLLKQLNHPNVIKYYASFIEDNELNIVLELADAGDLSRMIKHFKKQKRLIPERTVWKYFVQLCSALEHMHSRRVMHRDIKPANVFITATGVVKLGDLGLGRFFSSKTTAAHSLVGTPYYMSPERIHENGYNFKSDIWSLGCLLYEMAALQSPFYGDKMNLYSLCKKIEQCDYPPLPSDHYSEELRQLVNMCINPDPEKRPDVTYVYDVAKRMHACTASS
UniProt Q13554, sequence (whole entry, looked up): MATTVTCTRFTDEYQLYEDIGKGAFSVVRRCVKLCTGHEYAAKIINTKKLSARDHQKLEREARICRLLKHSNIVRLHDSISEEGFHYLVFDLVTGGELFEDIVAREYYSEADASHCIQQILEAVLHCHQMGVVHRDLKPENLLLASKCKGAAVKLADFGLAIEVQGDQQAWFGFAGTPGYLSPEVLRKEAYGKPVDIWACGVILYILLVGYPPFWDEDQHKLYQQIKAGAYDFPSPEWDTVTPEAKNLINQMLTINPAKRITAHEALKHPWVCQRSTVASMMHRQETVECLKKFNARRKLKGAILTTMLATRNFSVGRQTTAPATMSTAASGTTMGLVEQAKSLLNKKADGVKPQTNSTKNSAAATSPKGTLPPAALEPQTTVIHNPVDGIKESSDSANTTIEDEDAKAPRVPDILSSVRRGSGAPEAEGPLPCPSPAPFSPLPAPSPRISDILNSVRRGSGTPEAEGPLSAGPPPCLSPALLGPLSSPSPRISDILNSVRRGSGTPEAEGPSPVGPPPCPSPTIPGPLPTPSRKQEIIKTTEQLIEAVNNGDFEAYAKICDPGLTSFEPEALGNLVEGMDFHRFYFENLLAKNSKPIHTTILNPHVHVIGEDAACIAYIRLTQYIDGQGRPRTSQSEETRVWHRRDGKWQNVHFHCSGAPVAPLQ
UniProt O75716, sequence (whole entry, looked up): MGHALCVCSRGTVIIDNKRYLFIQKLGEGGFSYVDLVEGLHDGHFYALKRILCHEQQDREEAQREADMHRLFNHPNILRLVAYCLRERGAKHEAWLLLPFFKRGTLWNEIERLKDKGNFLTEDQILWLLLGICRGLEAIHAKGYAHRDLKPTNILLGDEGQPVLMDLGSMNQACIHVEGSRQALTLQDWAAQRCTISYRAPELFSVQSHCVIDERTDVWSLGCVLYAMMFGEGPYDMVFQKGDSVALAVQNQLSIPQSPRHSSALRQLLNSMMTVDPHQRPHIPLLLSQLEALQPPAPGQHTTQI
UniProt Q9UEE5, sequence (whole entry, looked up): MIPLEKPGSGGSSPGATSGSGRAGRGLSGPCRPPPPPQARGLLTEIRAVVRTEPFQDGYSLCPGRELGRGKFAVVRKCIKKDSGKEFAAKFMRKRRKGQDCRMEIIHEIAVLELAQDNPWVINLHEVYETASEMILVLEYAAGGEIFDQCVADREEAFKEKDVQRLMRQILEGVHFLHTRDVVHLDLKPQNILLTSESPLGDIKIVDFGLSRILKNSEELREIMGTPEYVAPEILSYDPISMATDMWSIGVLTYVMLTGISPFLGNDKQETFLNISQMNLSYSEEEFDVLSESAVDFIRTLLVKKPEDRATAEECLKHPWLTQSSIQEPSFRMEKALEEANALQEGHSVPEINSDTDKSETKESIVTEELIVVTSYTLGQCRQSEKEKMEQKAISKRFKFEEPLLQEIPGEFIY

Study 1 — SMILES: Ic1cccc(CSc2nnc(-c3ccncc3)o2)c1; read-out: enzyme activity; action: inhibitor; concentration: 0.5 µM; relative to: control
target | remaining activity [%]
STK17A (Homo sapiens, UniProt Q9UEE5) | 95.8
MAP4K4 (Homo sapiens, UniProt O95819) | 97.4
PDPK1 (Homo sapiens, UniProt O15530) | 98.3
RPS6KA6 (Homo sapiens, UniProt Q9UK32) | 103
STK16 (Homo sapiens, UniProt O75716) | 110
WNK3 (Homo sapiens, UniProt Q9BYP7) | 101
DYRK3 (Homo sapiens, UniProt O43781) | 108
ABL1 (Homo sapiens, UniProt P00519) | 107
BLK (Homo sapiens, UniProt P51451) | 103
CAMK2B (Homo sapiens, UniProt Q13554) | 95.4
EPHB4 (Homo sapiens, UniProt P54760) | 101
HIPK4 (Homo sapiens, UniProt Q8NE63) | 98.8
EPHB1 (Homo sapiens, UniProt P54762) | 101

Study 2 — technique: competition with immobilised ligand; concentration: 1 µM
Compound: Cc1cc(-n2nc(Cc3cc(F)cc(C(F)(F)F)c3)nc2C)ccc1C(N)=O
target | read-out | remaining binding
IKBKE (Homo sapiens, UniProt Q14164) | cell-free assay | 82%
STK32A (Homo sapiens, UniProt Q8WU08) | cell-free assay | 85%
CDK11A (Homo sapiens, UniProt Q9UQ88) | binding | 100%
NEK7 (Homo sapiens, UniProt Q8TDX7) | cell-free assay | 97%
FLT3 (Homo sapiens, UniProt P36888, D835V) | cell-free assay | 100%
EPHB2 (Homo sapiens, UniProt P29323) | cell-free assay | 100%
IRAK3 (Homo sapiens, UniProt Q9Y616) | cell-free assay | 100%
ACVR2A (Homo sapiens, UniProt P27037) | cell-free assay | 100%
TNNI3K (Homo sapiens, UniProt Q59H18) | cell-free assay | 100%
PIP4K2B (Homo sapiens, UniProt P78356) | cell-free assay | 100%
GAK (Homo sapiens, UniProt O14976) | cell-free assay | 100%
CAMK2D (Homo sapiens, UniProt Q13557) | cell-free assay | 100%
KIT (Homo sapiens, UniProt P10721, D816H) | cell-free assay | 100%

Study 3 — cell line: mouse MPNST tumor cells; technique: high-content immunofluorescence imaging; measured: nuclear SOX9; concentration: 10 µM; time: 12 h; notes: mean of 2 replicates; relative to: DMSO control; reading: higher = more nuclear SOX9
SMILES | nuclear SOX9 intensity
CCOC(=O)c1c(C)[nH]c2ccc3c(c12)CN1CCc2cc(OC)ccc2C1O3 (centres unmarked) | 212 % of DMSO
CCN1C(=CC(C)=O)Sc2ccc(O)cc21 | 71.6 % of DMSO
COC1C(O)CC(=O)OC(C)CC=CC=CC(OC2CCC(N(C)C)C(C)O2)C(C)CC(CC=O)C1OC1OC(C)C(OC2CC(C)(O)C(O)C(C)O2)C(N(C)C)C1O (centres unmarked) | 108 % of DMSO
COC(=O)c1csc(C(=O)c2c[nH]c3ccccc23)n1 | 83.5 % of DMSO
O=c1[nH]c2cc(C(F)(F)F)c(N3CCOCC3)cc2n(CP(=O)(O)O)c1=O | 95.8 % of DMSO
CCC(C)CCCC(=O)NC(CCN)C(=O)NC(C(=O)NC(CCN)C(=O)NC1CCNC(=O)C(C(C)O)NC(=O)C(CCN)NC(=O)C(CCN)NC(=O)C(CC(C)C)NC(=O)C(CC(C)C)NC(=O)C(CCN)NC1=O)C(C)O (centres unmarked) | 97.1 % of DMSO
CC(=O)Nc1ccc(CC(=O)O)cc1 | 96.3 % of DMSO
COc1cccc([C@H](O)C2CCN(CCc3ccc(F)cc3)CC2)c1OC | 134 % of DMSO
CCOC(=O)OC(C)OC(=O)[C@@H]1N2C(=O)[C@@H](NC(=O)[C@H](N)c3ccccc3)[C@H]2SC1(C)C (some centres unmarked) | 89.2 % of DMSO
Fc1ccccc1Nc1nc2nonc2nc1Nc1ccccc1F | 90.4 % of DMSO
Nc1ccc(-c2cccc3c(=O)cc(N4CCOCC4)oc23)cc1 | 109 % of DMSO
CCN(CC)CCCC(C)Nc1nc(C)cc(Nc2ccc3nc(C)cc(N)c3c2)n1 (centres unmarked) | 99.7 % of DMSO
CC(C)C(C(=O)Nc1nccs1)c1ccc(Cl)cc1 (centres unmarked) | 114 % of DMSO

Study 4 — species: human; matrix: microsomes or S9; concentration: 2 µM; time: 0.5 h
SMILES | remaining compound
CC(C)N(CCNc1ncnc2nc[nH]c12)C(C)C | 57%
Cc1ccnc(COc2cc(C)nc3onc(C)c23)n1 | 49.2%
CCc1ccccc1NC(=O)Cn1nc2n(C)c(=O)c3ccc(C(=O)NC(C)CC)cc3n2c1=O (centres unmarked) | 78.7%
O=C(Nc1ccc(F)cc1)Nc1cc2ccc(O)cc2s1 | 35.1%
CC(NC(=O)CN1C(=O)CCn2nc(-c3cn(C)c4ccccc34)cc21)c1ccc2c(c1)OCCO2 (centres unmarked) | 11.5%
Nc1c2c(nc3ccccc13)N(C1CCCCC1)CC2 | 66.1%
CCOc1cc(=O)n2c(c1C(=O)N(CC)Cc1ccncc1)CCCCC2 | 65.8%
CCCNc1ccc2ncc(-c3ccc4[nH]ncc4c3)n2n1 | 31.2%
c1ccc2c(c1)OCC(c1csc(C3COc4ccccc4O3)n1)O2 (centres unmarked) | 78%
Nc1ccc(F)cc1-c1cc(Cl)cc(Cl)c1 | 16.2%
CC(C)(C)N1CC(C(=O)NCCOc2ccc(-c3ccccc3)cc2)CC1=O (centres unmarked) | 24.5%

Some of these lines once more (study 1):
target | remaining activity [%]
ABL1 (Homo sapiens, UniProt P00519) | 107
WNK3 (Homo sapiens, UniProt Q9BYP7) | 101
CAMK2B (Homo sapiens, UniProt Q13554) | 95.4
PDPK1 (Homo sapiens, UniProt O15530) | 98.3
EPHB1 (Homo sapiens, UniProt P54762) | 101
